Measurements of several laboratories.
Parts stem from different laboratories: compare values within a part only.
Chain of UniProt P10721 (whole entry, unmodified, looked up): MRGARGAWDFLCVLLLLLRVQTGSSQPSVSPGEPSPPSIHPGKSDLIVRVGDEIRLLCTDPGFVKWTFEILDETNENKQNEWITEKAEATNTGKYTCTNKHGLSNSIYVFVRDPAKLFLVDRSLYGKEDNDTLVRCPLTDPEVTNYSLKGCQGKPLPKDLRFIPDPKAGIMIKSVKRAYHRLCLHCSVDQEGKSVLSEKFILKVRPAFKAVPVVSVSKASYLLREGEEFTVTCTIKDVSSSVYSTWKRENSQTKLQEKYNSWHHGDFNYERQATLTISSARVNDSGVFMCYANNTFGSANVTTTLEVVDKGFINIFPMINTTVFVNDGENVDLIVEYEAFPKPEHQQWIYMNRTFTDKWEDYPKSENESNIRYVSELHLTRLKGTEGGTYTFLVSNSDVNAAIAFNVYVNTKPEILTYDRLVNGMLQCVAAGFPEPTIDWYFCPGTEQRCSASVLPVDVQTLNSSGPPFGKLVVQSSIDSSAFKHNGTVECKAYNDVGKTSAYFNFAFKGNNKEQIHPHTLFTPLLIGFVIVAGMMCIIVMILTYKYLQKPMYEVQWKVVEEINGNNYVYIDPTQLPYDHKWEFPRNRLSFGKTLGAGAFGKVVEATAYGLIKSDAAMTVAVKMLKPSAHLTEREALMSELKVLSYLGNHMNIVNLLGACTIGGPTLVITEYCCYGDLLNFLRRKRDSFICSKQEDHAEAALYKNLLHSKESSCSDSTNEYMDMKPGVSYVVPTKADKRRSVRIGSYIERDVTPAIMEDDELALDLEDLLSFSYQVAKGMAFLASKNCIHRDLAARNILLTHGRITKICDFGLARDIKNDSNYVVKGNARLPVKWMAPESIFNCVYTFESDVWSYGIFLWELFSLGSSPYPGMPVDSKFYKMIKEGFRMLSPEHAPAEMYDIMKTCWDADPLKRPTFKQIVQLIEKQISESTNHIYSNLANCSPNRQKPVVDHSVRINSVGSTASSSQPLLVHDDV
Chain of UniProt Q8NEV4 (whole entry, looked up): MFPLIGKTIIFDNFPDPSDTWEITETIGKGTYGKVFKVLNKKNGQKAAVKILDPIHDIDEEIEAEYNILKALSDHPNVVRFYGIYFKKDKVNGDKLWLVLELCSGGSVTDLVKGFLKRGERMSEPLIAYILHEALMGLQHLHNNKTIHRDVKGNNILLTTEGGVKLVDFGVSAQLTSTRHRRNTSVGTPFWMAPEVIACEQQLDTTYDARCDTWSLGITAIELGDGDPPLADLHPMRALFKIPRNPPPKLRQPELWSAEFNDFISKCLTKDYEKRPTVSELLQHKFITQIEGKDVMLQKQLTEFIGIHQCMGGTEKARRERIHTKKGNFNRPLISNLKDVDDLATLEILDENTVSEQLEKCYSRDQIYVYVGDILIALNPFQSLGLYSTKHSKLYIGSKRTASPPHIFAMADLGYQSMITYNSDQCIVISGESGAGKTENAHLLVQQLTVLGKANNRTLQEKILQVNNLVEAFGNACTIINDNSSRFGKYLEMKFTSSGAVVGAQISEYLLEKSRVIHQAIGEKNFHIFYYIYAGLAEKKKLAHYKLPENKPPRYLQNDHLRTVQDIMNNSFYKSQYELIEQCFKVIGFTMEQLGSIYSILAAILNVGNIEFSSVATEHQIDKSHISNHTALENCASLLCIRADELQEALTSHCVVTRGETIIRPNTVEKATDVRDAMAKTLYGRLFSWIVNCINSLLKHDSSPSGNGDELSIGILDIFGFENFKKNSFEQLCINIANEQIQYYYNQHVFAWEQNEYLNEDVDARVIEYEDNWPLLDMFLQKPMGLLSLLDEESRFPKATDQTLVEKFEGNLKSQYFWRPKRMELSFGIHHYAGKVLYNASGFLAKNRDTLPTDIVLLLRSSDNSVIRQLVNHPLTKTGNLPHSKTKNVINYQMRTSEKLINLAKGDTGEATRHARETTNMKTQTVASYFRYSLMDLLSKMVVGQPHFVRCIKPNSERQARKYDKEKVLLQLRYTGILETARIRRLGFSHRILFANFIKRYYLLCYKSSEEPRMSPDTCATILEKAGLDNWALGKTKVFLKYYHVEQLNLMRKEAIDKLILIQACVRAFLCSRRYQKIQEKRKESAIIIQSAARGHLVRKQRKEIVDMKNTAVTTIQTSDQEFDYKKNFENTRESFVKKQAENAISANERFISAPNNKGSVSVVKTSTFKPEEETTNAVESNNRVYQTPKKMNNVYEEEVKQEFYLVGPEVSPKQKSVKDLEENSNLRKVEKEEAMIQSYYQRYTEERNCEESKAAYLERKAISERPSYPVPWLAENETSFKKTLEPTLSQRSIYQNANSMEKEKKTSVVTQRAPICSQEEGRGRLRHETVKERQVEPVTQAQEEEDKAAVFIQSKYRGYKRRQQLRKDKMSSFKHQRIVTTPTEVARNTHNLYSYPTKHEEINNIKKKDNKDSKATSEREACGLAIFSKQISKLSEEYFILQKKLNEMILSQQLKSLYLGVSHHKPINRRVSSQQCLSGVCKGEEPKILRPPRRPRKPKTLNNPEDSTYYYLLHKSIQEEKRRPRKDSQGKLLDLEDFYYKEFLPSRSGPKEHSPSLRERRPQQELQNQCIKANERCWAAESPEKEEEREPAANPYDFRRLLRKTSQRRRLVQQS
Chain of UniProt Q9H2X6 (whole entry, looked up): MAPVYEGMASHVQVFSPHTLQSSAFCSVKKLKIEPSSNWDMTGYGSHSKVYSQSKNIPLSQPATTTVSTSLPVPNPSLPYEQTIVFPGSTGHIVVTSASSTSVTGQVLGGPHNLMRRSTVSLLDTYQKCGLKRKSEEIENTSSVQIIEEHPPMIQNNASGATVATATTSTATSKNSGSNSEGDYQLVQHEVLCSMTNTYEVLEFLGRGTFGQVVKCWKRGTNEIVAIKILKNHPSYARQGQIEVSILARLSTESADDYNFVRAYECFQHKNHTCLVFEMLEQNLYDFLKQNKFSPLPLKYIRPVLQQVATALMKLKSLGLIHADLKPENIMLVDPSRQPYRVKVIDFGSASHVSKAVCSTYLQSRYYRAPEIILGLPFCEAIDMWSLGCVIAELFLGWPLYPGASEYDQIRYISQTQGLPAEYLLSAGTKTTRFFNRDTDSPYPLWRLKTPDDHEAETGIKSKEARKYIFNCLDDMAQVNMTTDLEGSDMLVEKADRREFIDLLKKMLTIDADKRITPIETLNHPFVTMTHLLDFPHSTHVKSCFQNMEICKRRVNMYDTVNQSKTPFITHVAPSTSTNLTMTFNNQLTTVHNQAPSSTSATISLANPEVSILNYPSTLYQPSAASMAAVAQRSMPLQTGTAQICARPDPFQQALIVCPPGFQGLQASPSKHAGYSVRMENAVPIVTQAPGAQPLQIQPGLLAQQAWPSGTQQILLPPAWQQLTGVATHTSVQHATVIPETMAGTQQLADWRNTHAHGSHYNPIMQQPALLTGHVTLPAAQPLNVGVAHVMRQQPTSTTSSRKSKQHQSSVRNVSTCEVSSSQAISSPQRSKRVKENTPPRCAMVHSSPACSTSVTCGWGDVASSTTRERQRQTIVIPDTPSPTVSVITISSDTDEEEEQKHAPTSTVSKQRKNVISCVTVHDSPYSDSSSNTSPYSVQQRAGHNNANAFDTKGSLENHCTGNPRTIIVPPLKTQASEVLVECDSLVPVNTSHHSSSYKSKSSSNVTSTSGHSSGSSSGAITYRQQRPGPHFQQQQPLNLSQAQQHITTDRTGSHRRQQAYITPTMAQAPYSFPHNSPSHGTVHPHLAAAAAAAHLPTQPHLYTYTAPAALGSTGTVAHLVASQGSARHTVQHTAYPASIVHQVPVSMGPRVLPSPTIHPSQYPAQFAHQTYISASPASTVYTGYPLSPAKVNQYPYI
Chain of UniProt O00444 (whole entry, looked up): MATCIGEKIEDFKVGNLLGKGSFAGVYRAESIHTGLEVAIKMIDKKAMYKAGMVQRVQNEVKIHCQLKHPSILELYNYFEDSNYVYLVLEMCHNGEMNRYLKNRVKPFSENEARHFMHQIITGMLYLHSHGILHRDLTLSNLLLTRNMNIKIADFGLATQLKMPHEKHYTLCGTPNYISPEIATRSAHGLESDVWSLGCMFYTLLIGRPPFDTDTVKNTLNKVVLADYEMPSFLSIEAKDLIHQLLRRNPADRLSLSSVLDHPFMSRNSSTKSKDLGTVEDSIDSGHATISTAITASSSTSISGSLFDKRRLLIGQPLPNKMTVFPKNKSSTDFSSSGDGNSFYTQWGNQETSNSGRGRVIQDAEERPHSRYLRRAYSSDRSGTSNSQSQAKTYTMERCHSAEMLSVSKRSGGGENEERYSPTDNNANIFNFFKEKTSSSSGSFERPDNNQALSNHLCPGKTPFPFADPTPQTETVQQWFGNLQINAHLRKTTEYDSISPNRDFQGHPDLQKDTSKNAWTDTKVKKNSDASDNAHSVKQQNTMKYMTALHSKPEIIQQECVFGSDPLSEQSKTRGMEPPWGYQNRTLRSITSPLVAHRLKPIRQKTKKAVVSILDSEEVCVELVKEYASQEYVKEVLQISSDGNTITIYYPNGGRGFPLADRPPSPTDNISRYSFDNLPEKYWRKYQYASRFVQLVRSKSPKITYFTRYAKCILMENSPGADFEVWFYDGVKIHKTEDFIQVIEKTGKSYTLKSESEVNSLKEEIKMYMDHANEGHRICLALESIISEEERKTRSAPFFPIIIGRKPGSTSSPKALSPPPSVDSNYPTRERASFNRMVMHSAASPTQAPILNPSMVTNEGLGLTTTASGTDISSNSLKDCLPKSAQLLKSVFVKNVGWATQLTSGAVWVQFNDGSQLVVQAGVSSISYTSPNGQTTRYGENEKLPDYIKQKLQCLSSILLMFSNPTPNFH
Chain of UniProt P28482 (whole entry, looked up): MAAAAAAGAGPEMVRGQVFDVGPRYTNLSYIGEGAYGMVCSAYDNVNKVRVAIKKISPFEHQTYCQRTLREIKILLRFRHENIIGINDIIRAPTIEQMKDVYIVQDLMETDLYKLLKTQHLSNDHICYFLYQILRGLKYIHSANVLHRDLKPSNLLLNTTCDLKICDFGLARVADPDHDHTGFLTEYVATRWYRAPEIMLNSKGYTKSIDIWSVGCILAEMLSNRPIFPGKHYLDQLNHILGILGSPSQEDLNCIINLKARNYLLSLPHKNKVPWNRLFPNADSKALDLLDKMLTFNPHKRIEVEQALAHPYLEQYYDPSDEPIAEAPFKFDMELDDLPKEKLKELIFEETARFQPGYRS

Set 1 — concentration: 1 µM
SMILES: CS(=O)(=O)NCC[C@H](NC(=O)c1cncc2c1cnn2-c1ccc(F)cc1)c1ccnc(S(C)(=O)=O)c1
The remaining binding was 100% (Mast/stem cell growth factor receptor Kit, autoinhibited (KIT, Homo sapiens, UniProt P10721); cell-free assay, competition with immobilised ligand).
PIP5K1C (Homo sapiens, UniProt O60331); cell-free assay, competition with immobilised ligand — remaining binding: 78%.
CAMK1D (Homo sapiens, UniProt Q8IU85); cell-free assay, competition with immobilised ligand — remaining binding: 98%.
For KIT (Homo sapiens, UniProt P10721, V559D); cell-free assay, competition with immobilised ligand: remaining binding read 100%.
The remaining binding was 100% (PRKCI (Homo sapiens, UniProt P41743); cell-free assay, competition with immobilised ligand).
The remaining binding was 100% (CDC42BPG (Homo sapiens, UniProt Q6DT37); competition binding).
It gave 67% for remaining binding (STK32B (Homo sapiens, UniProt Q9NY57); cell-free assay, competition with immobilised ligand).
TGFBR1 (Homo sapiens, UniProt P36897); cell-free assay, competition with immobilised ligand — remaining binding: 100%.
For ULK1 (Homo sapiens, UniProt O75385); cell-free assay, competition with immobilised ligand: remaining binding read 100%.
The remaining binding was 99% (FLT3 (Homo sapiens, UniProt P36888, F691L/ITD); cell-free assay, competition with immobilised ligand).
It gave 100% for remaining binding (ULK2 (Homo sapiens, UniProt Q8IYT8); cell-free assay, competition with immobilised ligand).
TESK1 (Homo sapiens, UniProt Q15569); cell-free assay, competition with immobilised ligand — remaining binding: 100%.
It gave 77% for remaining binding (CHEK2 (Homo sapiens, UniProt O96017); cell-free assay, competition with immobilised ligand).
It gave 100% for remaining binding (Tyrosine-protein kinase ABL1, phosphorylated (ABL1, Homo sapiens, UniProt P00519, H396P); cell-free assay, competition with immobilised ligand).
It gave 89% for remaining binding (PLK4 (Homo sapiens, UniProt O00444); cell-free assay, competition with immobilised ligand).
It gave 100% for remaining binding (FGFR3 (Homo sapiens, UniProt P22607); cell-free assay, competition with immobilised ligand).
The remaining binding was 100% (CAMK1G (Homo sapiens, UniProt Q96NX5); cell-free assay, competition with immobilised ligand).

Set 2 — read-out: enzyme activity; mode: inhibitor; concentration: 0.5 µM; baseline: control
Target: Dual specificity tyrosine-phosphorylation-regulated kinase 1A (DYRK1A, Homo sapiens, UniProt Q13627)
The remaining activity of `Ic1cccc(CSc2nnc(-c3ccncc3)o2)c1` is reported as 96.4%.
`CCOc1nc(NC(=O)Cc2cc(OC)ccc2OC)cc(N)c1C#N` gave a remaining activity of 98.5%.
The remaining activity of `Cc1cc2ncc(-c3ccccc3)nc2cc1C` is reported as 89.9%.
`Cc1cn(-c2cc(NC(=O)c3ccc(C)c(Nc4nccc(-c5cccnc5)n4)c3)cc(C(F)(F)F)c2)cn1` has a remaining activity of 102%.
The remaining activity of `c1ccc(-c2cnc(Nc3ccc(OCCN4CCCC4)cc3)s2)cc1` is reported as 94.2%.
`N#Cc1c(NC(=O)c2cccc3ccccc23)sc2c1CCCC2` has a remaining activity of 96.7%.
`C[C@@H]1CCN(C(=O)CC#N)C[C@@H]1N(C)c1ncnc2[nH]ccc12` has a remaining activity of 102%.
`COc1cc2ncnc(Nc3cccc(Cl)c3)c2cc1OC` gave a remaining activity of 90.7%.
The remaining activity of `CN([C@@H](Cc1ccc(OS(=O)(=O)c2cccc3cnccc23)cc1)C(=O)N1CCN(c2ccccc2)CC1)S(=O)(=O)c1cccc2cnccc12` is reported as 102%.
With `O=C(NC(NC(=S)Nc1ccc(F)c([N+](=O)[O-])c1)C(Cl)(Cl)Cl)C(c1ccccc1)c1ccccc1` (stereo not shown) the remaining activity was 99.8%.
`O=C1C(Cl)=C(N2C(=O)CCC2=O)C(=O)c2ccccc21` gave a remaining activity of 99.1%.

Set 3 — host: human; sample: microsomes or S9; concentration: 2 µM; time: 0.5 h
`O=C(Cc1c(F)cccc1Cl)N1CCc2n[nH]c(=O)n2CC1` gave a remaining compound of 13.6%.
The remaining compound of `COCc1cccc(C(=O)OCC(=O)c2ccc(CCCNC(C)=O)cc2)c1` is reported as 1.12%.
The remaining compound of `CN(C)Cc1c(N)n(Cc2ccco2)c(=O)[nH]c1=O` is reported as 87.7%.
For `Cc1nn(-c2ccc(Cl)cc2)c2[nH]c(=O)c(CNCC3CCCO3)cc12` (stereo not shown), the remaining compound was 90.4%.
For `CC(C)C[C@H](C(=O)NOC(C)(C)C)N1C(=O)Nc2cc(Cl)cc(Cl)c2S1(=O)=O`, the remaining compound was 45.8%.
`CC(C)(C)c1ccc(-c2n[nH]c(-c3ccccc3N)nc2=O)cc1` gave a remaining compound of 81.1%.
With `CC(C)Cc1nc2nccc(-c3ccncc3)n2n1` the remaining compound was 86.8%.
`O=C(NCc1nc(-c2ccc[nH]c2=O)no1)c1ccc2[nH]c(=O)oc2c1` gave a remaining compound of 78.5%.
For `CC(C)c1c(Cl)nc(NCCO)nc1N1CCN(C(=O)CO)CC1`, the remaining compound was 95.7%.
For `Cc1nnc(-c2nnc(N3CCN(C4CCCCC4)CC3)c3ccccc23)o1`, the remaining compound was 72.3%.
With `NC1=C(c2nc3ccccc3s2)C(=O)CN1CC1COCCO1` (stereo not shown) the remaining compound was over 100%.
`Cc1n[nH]c(CN2CCOc3cc(F)c(Br)cc32)n1` has a remaining compound of 74.8%.
The remaining compound of `CCOC(=O)c1c(N)sc2c1CCC(CC)C2` (stereo not shown) is reported as 81%.

Set 4 — concentration: 1 µM
SMILES: CN1CCN(C(=O)c2ccc(NC(=O)Nc3ccc(N(C)c4ccnc(Nc5ccc(CS(C)(=O)=O)cc5)n4)cc3)cc2)CC1
Tyrosine-protein kinase JAK1, JH1 (JAK1, Homo sapiens, UniProt P23458); cell-free assay, competition with immobilised ligand — remaining binding: 76%.
It gave 67% for remaining binding (MAP3K6 (Homo sapiens, UniProt O95382); binding).
For CHUK (Homo sapiens, UniProt O15111); binding: remaining binding read 90%.
The remaining binding was 100% (MAPK1 (Homo sapiens, UniProt P28482); binding).
NIM1K (Homo sapiens, UniProt Q8IY84); binding — remaining binding: 99%.
It gave 7.1% for remaining binding (NTRK1 (Homo sapiens, UniProt P04629); binding, competition with immobilised ligand).
The remaining binding was 7% (Myosin-IIIa (MYO3A, Homo sapiens, UniProt Q8NEV4); binding).
SRPK2 (Homo sapiens, UniProt P78362); binding — remaining binding: 80%.
For MST1R (Homo sapiens, UniProt Q04912); binding: remaining binding read 41%.
The remaining binding was 77% (HIPK2 (Homo sapiens, UniProt Q9H2X6); binding, competition with immobilised ligand).
It gave 0.1% for remaining binding (KIT (Homo sapiens, UniProt P10721, T670I/V559D); binding).
The remaining binding was 8.3% (TIE1 (Homo sapiens, UniProt P35590); binding, competition with immobilised ligand).
It gave 47% for remaining binding (COQ8B (Homo sapiens, UniProt Q96D53); binding).
It gave 100% for remaining binding (EGFR (Homo sapiens, UniProt P00533, G719S); binding).

For quick reference, copied from above (set 3):
The remaining compound of `CCOC(=O)c1c(N)sc2c1CCC(CC)C2` (stereo not shown) is reported as 81%.
`O=C(NCc1nc(-c2ccc[nH]c2=O)no1)c1ccc2[nH]c(=O)oc2c1` gave a remaining compound of 78.5%.
The remaining compound of `CN(C)Cc1c(N)n(Cc2ccco2)c(=O)[nH]c1=O` is reported as 87.7%.
The remaining compound of `COCc1cccc(C(=O)OCC(=O)c2ccc(CCCNC(C)=O)cc2)c1` is reported as 1.12%.
